Published values pooled from the literature.
Several values in a cell are separate wells, animals, samples, runs or records.
Cell line: MDA-MB-231

Compound | assay | conditions | IC50
Nc1ncnc2c1ncn2CCN1C(=O)/C(=N\N=C2/NC(=O)CS2)c2cc(F)ccc21 | cell growth or viability, SRB | 72 h | 84.5 µg/mL
CCCc1cc2cc(-n3nc(CCC)c4c3CC(C)(C)CC4=O)cc(N3CCC(O)CC3)c2c(=O)[nH]1 | cell growth or viability, MTS | – | 8.9 µM
CCOC(=O)/C=C1\S/C(=N\N=C\c2cccc3cc4ccccc4nc23)N(CC(C)C)C1=O | cell growth or viability, MTT | 48 h | > 50 µM
O=C(CN1CCOCC1)N1CCN(CC(OCc2ccc3ccccc3c2)c2ccc(Cl)cc2Cl)CC1 (centres unmarked) | cell growth or viability, MTT | 24 h | > 50 µM
Cc1cnc(Nc2ccc3c(c2)CCN(C(=O)/C=C/C(=O)C2CCC(C)CC2)C3)nc1-c1cnn(C(C)C)c1 (centres unmarked) | cell growth or viability, MTT | 48 h | 0.67 µM
CC(C)(C)c1cnc(CSc2cnc(NC(=O)C3CCN(C(=O)CCCCCCN4Cc5cc6c(cc5C4)C(=O)N(C4CCC(=O)NC4=O)C6=O)CC3)s2)o1 (centres unmarked) | cell growth or viability, MTT | – | 0.0668 µM
CCCc1cc2cc(-n3nc(C(C)C)c4c3CC(C)(C)CC4=O)cc(N3CCC(O)CC3)c2c(=O)[nH]1 | cell growth or viability, MTS | – | 8.17 µM
CC(C)(C)OC(=O)N1CCN(CC(OCc2ccc(Cl)cc2)c2ccc(Cl)cc2Cl)CC1 (centres unmarked) | cell growth or viability, MTT | 24 h | 25.4 µM
COc1ccc(CNC[C@](O)(COCc2ccccc2)[C@@H]2CC[C@@H](C)C[C@H]2OCc2ccccc2)cc1 | cell growth or viability, MTT | 72 h | 3.21 µM
CC(=O)[O][Pd][c]1cc(Cl)ccc1N1N=C(C)C(C)(C)C1=O.CC(=O)[O][Pd][c]1cc(Cl)ccc1N1N=C(C)C(C)(C)C1=O | cell growth or viability, MTT | – | > 100 µM
COc1c(C)c(OC(=O)c2ccc3ccccc3c2)c(C)c(O)c1C(=O)/C=C/c1ccccc1 | cell growth or viability, SRB | 72 h | > 50 µM
O=C(c1ccc([N+](=O)[O-])cc1)N1CCN(CC(OCc2ccc3ccccc3c2)c2ccc(Cl)cc2Cl)CC1 (centres unmarked) | cell growth or viability, MTT | 24 h | 39.5 µM
C[C@H]1[C@H](C)CC[C@]2(C)CC[C@]3(C)C(=CC(=O)[C@@H]4[C@@]5(C)CC[C@@H](O)[C@](C)(C(=O)O)[C@@H]5CC[C@]43C)[C@H]12 | cell growth or viability, MTT | 24 h | 101 µM
Cc1ccc(C(=O)N2CCN(CC(OCc3ccc4ccccc4c3)c3ccc(Cl)cc3Cl)CC2)cc1 (centres unmarked) | cell growth or viability, MTT | 24 h | 39.2 µM
COc1ccc(CNC[C@@](O)(COCc2ccc(F)cc2)[C@@H]2CC[C@@H](C)C[C@H]2OCc2ccc(F)cc2)cc1 | cell growth or viability, MTT | 72 h | 1.76 µM
CCCc1cc2cc(-n3nc(CC)c4c3CC(C)(C)CC4=O)cc(N3CCC(O)CC3)c2c(=O)[nH]1 | cell growth or viability, MTS | – | 1.53 µM
C[C@@H]1CC[C@@H]([C@@](O)(CNCc2ccc(F)cc2)COCc2ccccc2)[C@H](OCc2ccccc2)C1 | cell growth or viability, MTT | 72 h | 3.78 µM
O=C(/C=C/c1ccccc1)Nc1cc(-c2ccnc(N3CCC(CO)CC3)c2)ccn1 | cell growth or viability, MTT | 72 h | 0.0189 µM
CCCCCC(=O)Oc1c(C)c(OC)c2c(c1C)OC(=O)[C@@H](CCCC)[C@]2(O)/C=C/c1ccccc1 (relative stereo) | cell growth or viability, SRB | 72 h | > 50 µM
O=C(c1ccccc1Cl)N1CCN(CC(OCc2ccc3ccccc3c2)c2ccc(Cl)cc2Cl)CC1 (centres unmarked) | cell growth or viability, MTT | 24 h | 47.7 µM
COc1cccc(CNC[C@@](O)(COCc2ccccc2)[C@@H]2CC[C@@H](C)C[C@H]2OCc2ccccc2)c1 | cell growth or viability, MTT | 72 h | 16.8 µM
CCCc1cc2cc(-n3nc(C(F)F)c4c3CC3(CCC3)CC4=O)cc(N3CCC(O)CC3)c2c(=O)[nH]1 | cell growth or viability, MTS | – | 16.8 µM
O=S(=O)(c1ccc2c(c1)OCO2)n1cc(CCCCN2CCC(=C(c3ccc(F)c(F)c3)c3ccc(F)c(F)c3)CC2)nn1 | cell growth or viability, ATP luminescence | 48 h | 3.35 µM
CCCc1cc2cc(-n3nc(CC(C)C)c4c3CC(C)(C)CC4=O)cc(N3CCC(O)CC3)c2c(=O)[nH]1 | cell growth or viability, MTS | – | > 50 µM

Compound | assay | conditions | IC50
CC[C@H](C)/C=C/C=C/C(O)=C/C(=O)C(F)(F)F | cell growth, CellTiter-Glo | – | 79.1 µM and 94.4 µM
CCNC(NN=Cc1ccc([N+](=O)[O-])o1)=[S+][Au-][Cl] | cell growth or viability, resazurin | – | 26.8 µM
CCOC(=O)/C=C1\S/C(=N\N=C\c2cccc3cc4ccccc4nc23)N(C)C1=O | cell growth or viability, MTT | 48 h | > 50 µM
O=[N+]([O-])c1ccc(C=NNC(Nc2ccccc2)=[S+][Au-][Cl])o1 | cell growth or viability, resazurin | – | 68 µM
CCOC(=O)/C=C1\S/C(=N\N=C\c2cccc3cc4ccccc4nc23)N(c2cccc(OC)c2)C1=O | cell growth or viability, MTT | 48 h | > 50 µM
CC[C@H](C)/C=C/C=C/C=C/C(O)=C/C(=O)C(F)(Cl)Cl | cell viability, CellTiter-Glo | – | 17.4 µM and 6.15 µM
CCCCCCCCCCCC(=O)Oc1c(C)c(OC)c2c(/C=C/c3ccccc3)c(CCCCCCCCCC)c(=O)oc2c1C | cell growth or viability, SRB | 72 h | > 50 µM
Clc1ccc(C(Cn2cnc3ccccc32)OCc2ccc(Br)cc2)c(Cl)c1 (centres unmarked) | cell growth or viability, MTT | 24 h | > 50 µM
CC(=O)N[C@@H](CCCNC(=N)N)C(=O)N[C@@H](Cc1c[nH]c2ccccc12)C(=O)N[C@@H](CCCNC(=N)N)C(=O)N[C@@H](Cc1c[nH]c2ccccc12)C(=O)N[C@@H](CCCNC(=N)N)C(=O)N[C@@H](Cc1c[nH]c2ccccc12)C(N)=O | cell viability | 48 h, dark | > 100 µM
CCOC(=O)/C=C1\S/C(=N\N=C\c2cccc3cc4ccccc4nc23)N(c2ccccc2)C1=O | cell growth or viability, MTT | 48 h | > 50 µM
CC(C)c1ccc(N(C)c2ccc3c(c2)OCC[C@H]3CNc2cnccc2C(=O)O)cc1 | cell growth or viability, MTS | 7 days | 0.0035 µM
CC[C@H](C)/C=C/C=C/C=C/C(O)=C/C(=O)C(F)(F)F | cell growth, CellTiter-Glo | – | 30.7 µM and 22.7 µM
O=C1CS/C(=N\N=C\c2cccc3cc4ccccc4nc23)N1c1ccccc1 | cell growth or viability, MTT | 48 h | > 50 µM
CC(=O)[O][Pd][c]1ccccc1N1N=C(C)C(C)(C)C1=O.CC(=O)[O][Pd][c]1ccccc1N1N=C(C)C(C)(C)C1=O | cell growth or viability, MTT | – | 87.5 µM
O=C1C=CC2(Oc3cccc4cccc(c34)O2)C2=C1C(O)CCC2O (centres unmarked) | cell growth or viability, resazurin | 72 h | 6.8 µM
C[C@@H]1CC[C@@H]([C@](O)(COCc2ccccc2)Cn2cnc3ccccc32)[C@H](OCc2ccccc2)C1 | cell growth or viability, MTT | 72 h | 5.02 µM
CCCCCCCC(=O)Oc1c(C)c(OC)c2c(/C=C/c3ccccc3)c(CCCCCC)c(=O)oc2c1C | cell growth or viability, SRB | 72 h | > 50 µM
COc1ccc2c(c1)/C(=N/NC(N)=S)C(=O)N2CCn1cnc2c(N)ncnc21 | cell growth or viability, SRB | 72 h | 29.9 µg/mL
NC(NN=Cc1ccc([N+](=O)[O-])o1)=[S+][Au-][Cl] | cell growth or viability, resazurin | – | 35.7 µM
O=C(CN1CCCCC1)N1CCN(CC(OCc2ccc3ccccc3c2)c2ccc(Cl)cc2Cl)CC1 (centres unmarked) | cell growth or viability, MTT | 24 h | 8.08 µM
CC(=O)OC[C@H]1O[C@@H](Oc2ccc(C#[C][Pt+])cc2)[C@H](OC(C)=O)[C@@H](OC(C)=O)[C@@H]1OC(C)=O.O=S(=O)([O-])C(F)(F)F.c1ccc(-c2cccc(-c3ccccn3)n2)nc1 | cell growth or viability | 48 h | > 100 µM
O=C(c1ccccc1)N1CCN(CC(OCc2ccc3ccccc3c2)c2ccc(Cl)cc2Cl)CC1 (centres unmarked) | cell growth or viability, MTT | 24 h | > 50 µM
C[C@@H]1CC[C@@H]([C@@](O)(CNCc2cccc(F)c2)COCc2ccccc2)[C@H](OCc2ccccc2)C1 | cell growth or viability, MTT | 72 h | 4.17 µM
